Published values collected from several papers.
Parts stem from different laboratories: compare values within a part only.

Set 1 — method: protein binding microarray; molecule type: double-stranded DNA, one strand shown; medium: in vitro; concentration: not given; relative to: not given; direction: higher = stronger binding
Target: Histone acetyltransferase KAT6A, both winged helices, GST fusion (KAT6A, Homo sapiens, UniProt Q92794, residues 1-181)
Notes: 8-mer, flanks averaged, mean of 2 arrays, mostly near background
Target sequence (chain): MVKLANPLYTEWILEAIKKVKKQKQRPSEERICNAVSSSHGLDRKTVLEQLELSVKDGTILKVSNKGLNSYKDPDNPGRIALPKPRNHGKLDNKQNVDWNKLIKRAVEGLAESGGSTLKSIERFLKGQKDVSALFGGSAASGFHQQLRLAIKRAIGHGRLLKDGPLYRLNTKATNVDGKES
Strand | E-score
GGCAAAAC | -0.0184
AGGCGACC | -0.0264
GTTTGGAA | -0.137
TAACACTA | 0.00819
TAACTGGA | -0.204
AATGGCAC | 0.0155
CTATACAC | -0.062
AATCTATC | -0.0653
ATAAAGCC | 0.0599
CAACGAGC | -0.0378
ATTAATCA | -0.0405
AGGTCCCA | -0.221
AGTGAGCA | -0.128
AACCAAAT | -0.126
GCTGTCTA | -0.00707
AACAGGTC | -0.0982
CGGAATGC | 0.197
CTGCTTAC | -0.114
CGTAAACA | 0.145
AAACTCTT | -0.2
CGGGCGGA | 0.198
AGACAACT | -0.259
CCTATTAC | -0.148
AAACGAGC | -0.0831
AGGTATAT | -0.163

Set 2 — method: RNA Bind-n-Seq; molecule type: RNA; medium: in vitro; concentration: 200 nM; notes: whole 134-nt RNA, ends assumed; with: 150 mM KCl; relative to: input library; direction: higher = stronger binding
Target: Ras GTPase-activating protein-binding protein 1, full length (G3BP1, Homo sapiens, UniProt Q13283)
UniProt Q13283, sequence (whole entry, looked up): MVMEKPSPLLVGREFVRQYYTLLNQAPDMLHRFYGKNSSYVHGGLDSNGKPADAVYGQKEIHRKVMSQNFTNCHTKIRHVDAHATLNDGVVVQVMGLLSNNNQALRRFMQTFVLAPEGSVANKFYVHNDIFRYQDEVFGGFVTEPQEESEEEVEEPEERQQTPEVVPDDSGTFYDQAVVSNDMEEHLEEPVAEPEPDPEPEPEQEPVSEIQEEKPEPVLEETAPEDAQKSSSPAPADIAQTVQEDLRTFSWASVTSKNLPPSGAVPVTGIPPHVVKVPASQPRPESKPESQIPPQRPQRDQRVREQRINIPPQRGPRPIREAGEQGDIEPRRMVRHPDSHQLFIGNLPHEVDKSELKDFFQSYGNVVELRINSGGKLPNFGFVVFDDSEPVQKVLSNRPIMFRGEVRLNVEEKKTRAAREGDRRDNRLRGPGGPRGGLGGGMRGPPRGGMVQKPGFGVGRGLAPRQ
All sequences stand within: GGGAGUUCUACAGUCCGACGAUC … UGGAAUUCUCGGGUGUCAAGG
Strand | log2 enrichment
ACCAUGCAGGUGGGCAUCUUUGGGAAGUGGGGCAAGGGGGAAAUAGGGAGGGGGGUAACACUUUGGGAACAGGUGGUCCCAGGUCGUUUC | 0.942
AGUCCUGUGCUACACAUCGUAUGUACCGAAUCGGUUUUUUGGUUUUUUGGUUUUUUGGAAAGUAUUAUGUUACGCCGUUCGGAUCUGCAC | -1.43
CACAGACAACACGCACCCACACAGACACAGAGGGAAGGGGUUGGGAUGGGGACAGGGUGCACAGCAGGGCGGGGUAGGACCCAAACCCCU | 1.82
AAGUCCUGUGCUACACAUCGUAUGUACCGAAUCGGCCCCGGGCCCCGGGGCCCCGGAAAGUAUUAUGUUACGCCGUUCGGAUCUGCACUU | -0.129
GUCCUGUGCUACACAUCGUAUGUACCGAAUCGGAAAAAAAGGUUUUUUUGGUUUUUGGAAAGUAUUAUGUUACGCCGUUCGGAUCUGCAC | -1.63
UGGCCCUGGUGGCAUGCGGGGAGGAAGAGGUGGCCUCAUGGAUCGUGGUGGUCCCGGUGGAAUGUUCAGAGGUGGCCGUGGUGAAGACAG | 0.0749
AAGUCCUGUGCUACACAUCGUAUGUACCGAAUCGGGAAAGGGUUUUUUUGGGUGGGAAAGUAUUAUGUUACGCCGUUCGGAUCUGCACUU | 0.238
UGGCCCUGGUGGCAUGCGGGGAGGAAGAGGUGGCCUCAUGGAUCGUGGUGGUCCCGGUGGAAUGUUCUGAGGUGGCCGUGGUGGAGACAG | 0.194
UCCUGUGCUACACAUCGUAUGUACCGAAUCAAACCCCCCCAAACCCAAACCCCCCCAAAAAAGUAUUAUGUUACGCCGUUCGGAUCUGCA | 1.38
UUUCUCUCACCAGGUACCAGGUCAUCAGUACACCAUCUGAUAUUUUCAUGGUGAUGGAAUAUGUCUCAGGAGGAGAGCUAUUUGAUUAUA | -0.821
CCUGUGCUACACAUCGUAUGUACCGAAUCGGAAAAAAAGGGAAAAAAAGGGAAAAAAAGGAAAGUAUUAUGUUACGCCGUUCGGAUCUGC | -0.966
UCAAGUCCUGUGCUACACAUCGUAUGUACCGAAUCGGUGGUUUUUUUGGAAAGGAAAGUAUUAUGUUACGCCGUUCGGAUCUGCACUUCC | -0.857
CAAGUCCUGUGCUACACAUCGUAUGUACCGAAUCGGGGUUUGGGGUUUGGUUUGGGAAAGUAUUAUGUUACGCCGUUCGGAUCUGCACUU | 0.0343
UCAAGUCCUGUGCUACACAUCGUAUGUACCGAAUCGGGGCCGGGGCCGGCCGGGGAAAGUAUUAUGUUACGCCGUUCGGAUCUGCACUUC | -0.645

Set 3 — target: UBE2G1 UBC core domain (UniProt P62253); method: yeast two-hybrid; medium: yeast; notes: mostly zero background; relative to: not given; direction: higher = stronger interaction
B1: UBE4B RING domain (UniProt O95155); chain KNARAEIDYSDAPDEFRDPLMDTLMTDPVRLPSGTIMDRSIILRHLLNSPTDPFNRQTLTESMLEPVPELKEQIQAWMREKQNSDH
B2: MDM2 RING domain (UniProt Q00987); chain TQDKEESVESSLPLNAIEPCVICQGRPKNGCIVHGKTGHLMACFTCAKKLKKRNKPCPVCRQPIQMIVLTYFP
B3: SHPRH RING domain (UniProt Q149N8); chain KTSGGVNPEPCPICARQLGKQWAVLTCGHCFCNECISIIIEQYSVGSHRSSIKCAICRQTTSHKEISY
B4: TRIM32 RING domain (UniProt Q13049); chain NLDALREVLECPICMESFTEEQLRPKLLHCGHTICRQCLEKLLASSINGVRCPFCSKITRITSLTQ
B5: TRIM74 RING domain (UniProt Q86UV6); chain SLLELEDWLQCPICLEVFKESLMLQCGHSYCKGCLVSLSYHLDTKVRCPMCWQVVDGSSSLP
B6: TRIM68 RING domain (UniProt Q6AZZ1); chain LVEAIVEEVACPICMTFLREPMSIDCGHSFCHSCLSGLWEIPGESQNWGYTCPLCRAPVQPRNLRP
B7: TRIM34 RING domain (UniProt Q9BYJ4); chain ILLNVQEEVTCPICLELLTEPLSLDCGHSLCRACITVSNKEAVTSMGGKSSCPVCGISYSFEHLQA
B8: PJA2 RING domain (UniProt O43164); chain DHTAIGQEQCCPICCSEYIKDDIATELPCHHFFHKPCVSIWLQKSGTCPVCRRHFPPAVIEA
B9: TRIM2 RING domain (UniProt Q9C040); chain VRQIDKQFLICSICLERYKNPKVLPCLHTFCERCLQNYIPAHSLTLSCPVCRQTSILPEKGV
B10: CBLL1 RING domain (UniProt Q75N03); chain GEKDDTPVHFCDKCGLPIKIYGRMIPCKHVFCYDCAILHEKKGDKMCPGCSDPVQRIEQCT
B11: RNF17 RING domain (UniProt Q9BXT8); chain SQPWGAAEIQCTRCGRRVSRSSGHHCELQCGHAFCELCLLMTEECTTIICPDCEVATAVNTRQR
Target sequence (chain): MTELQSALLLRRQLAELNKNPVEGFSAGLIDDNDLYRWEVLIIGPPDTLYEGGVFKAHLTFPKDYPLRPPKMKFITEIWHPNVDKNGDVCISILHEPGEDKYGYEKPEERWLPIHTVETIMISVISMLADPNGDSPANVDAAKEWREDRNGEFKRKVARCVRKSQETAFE
Molecule | lacZ reporter activity
B1 (UBE4B RING domain) | 0
EDVLSKDAGECAICLEELQQGDTIARLPCLCIYHKGCIDEWFEVNRSCPEHPSD (ZNRF2 RING domain (UniProt Q8NHG8)) | 0
B2 (MDM2 RING domain) | 0
KITELNPHLMCALCGGYFIDATTIVECLHSFCKTCIVRYLETNKYCPMCDVQVHKTRPLL (PCGF2 RING domain (UniProt P35227)) | 0
B3 (SHPRH RING domain) | 0
B4 (TRIM32 RING domain) | 0
B5 (TRIM74 RING domain) | 0
B6 (TRIM68 RING domain) | 0
B7 (TRIM34 RING domain) | 0
SNNDLASLFECPVCFDYVLPPILQCQSGHLVCSNCRPKLTCCPTCRGPLGSIRNLA (SIAH1 RING domain (UniProt Q8IUQ4)) | 0
B8 (PJA2 RING domain) | 0
B9 (TRIM2 RING domain) | 0
B10 (CBLL1 RING domain) | 0
B11 (RNF17 RING domain) | 0

Set 4 — cell line: yeast with cyclin B3-Cln2 chimera; read-out: cell growth; mode: binder; method: competitive growth deep sequencing; molecule type: peptide; concentration: concentration not given; notes: peptide tiling library; direction: direction not given
Molecule | growth enrichment score
NRLLKLFTRCLTPLVP | -0.292
AGSAKRRLFGEDPPKE | -0.249
KVRRNLFNQELLSP | -0.321
ATNSSHTDAHEILVSD | 0.289
NESHLDKEHDAVEVAD | 0.337
PPTFLSTGEIHAFLSS | 0.00354
LAKRALKYTD | -0.981
HRRRLLFACSPPPASQ | -0.749
GPVKLEFDVSDGAT | -0.765
SPREGHMMDALYAQVK | 0.553
ELGMEHCEKFEISETS | 0.0413
SFLIEYEFLIPPSLKP | 0.911
VSRNLRSSLKSSLHTL | -0.268
YLYLLLTQSLWCRV | -0.721
RTEALEQGGLPKKLIF | 0.893

Set 5 — method: universal PBM; molecule type: double-stranded DNA, one strand shown; medium: in vitro; concentration: not given; direction: higher = stronger binding
Target: Sal-like protein 4, full length isoform B (SALL4, Homo sapiens, UniProt Q9UJQ4-2, residues 1-616)
Notes: 8-mer, flanks averaged, mean of replicates
Residues (chain): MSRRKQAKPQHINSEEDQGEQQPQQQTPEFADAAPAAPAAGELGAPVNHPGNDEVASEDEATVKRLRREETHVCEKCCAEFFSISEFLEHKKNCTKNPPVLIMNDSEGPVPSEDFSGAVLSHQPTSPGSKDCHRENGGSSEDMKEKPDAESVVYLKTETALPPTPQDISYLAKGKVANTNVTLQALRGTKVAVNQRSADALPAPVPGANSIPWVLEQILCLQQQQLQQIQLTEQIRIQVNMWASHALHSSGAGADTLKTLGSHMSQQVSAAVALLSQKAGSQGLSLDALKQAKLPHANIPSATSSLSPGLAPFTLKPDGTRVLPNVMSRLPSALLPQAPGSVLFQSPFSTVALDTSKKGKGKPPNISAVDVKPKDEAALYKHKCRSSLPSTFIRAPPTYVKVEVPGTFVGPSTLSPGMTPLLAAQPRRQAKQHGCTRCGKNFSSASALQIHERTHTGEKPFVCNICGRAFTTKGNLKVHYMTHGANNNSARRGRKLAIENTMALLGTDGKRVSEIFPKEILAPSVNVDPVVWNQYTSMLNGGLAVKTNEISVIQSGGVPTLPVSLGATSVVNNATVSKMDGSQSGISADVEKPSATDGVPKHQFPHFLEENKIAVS
Strand | E-score
AGCCACCG | -0.235
CCGCTTGA | -0.244
AGAAATCA | 0.223
AAGTCACG | -0.118
ACGTGTAA | 0.192
GAGCAAAC | 0.0536
AGGGCTAC | -0.133
CGCGGCTC | -0.268
CATCCGCC | -0.215
ACTACCCC | -0.0442
GGTCACAC | -0.24
TACTACCA | 0.0746
TGGCACCA | -0.214
TCAAGTGA | 0.097
CGAAATGA | 0.154
GTCGGCGA | -0.311
AATATCAT | 0.376
CCCGGCGG | -0.419
ACGCAAAG | -0.00249
CTGCCTTC | -0.171
TGGAGAAA | -0.00611
ATTCAAAG | 0.116
CCTTCTCC | -0.2
CTGTCTCC | -0.248
CGACAGCA | -0.121

Excerpt of the above (set 2):
Strand | log2 enrichment
UUUCUCUCACCAGGUACCAGGUCAUCAGUACACCAUCUGAUAUUUUCAUGGUGAUGGAAUAUGUCUCAGGAGGAGAGCUAUUUGAUUAUA | -0.821
UGGCCCUGGUGGCAUGCGGGGAGGAAGAGGUGGCCUCAUGGAUCGUGGUGGUCCCGGUGGAAUGUUCUGAGGUGGCCGUGGUGGAGACAG | 0.194
UCAAGUCCUGUGCUACACAUCGUAUGUACCGAAUCGGGGCCGGGGCCGGCCGGGGAAAGUAUUAUGUUACGCCGUUCGGAUCUGCACUUC | -0.645
GUCCUGUGCUACACAUCGUAUGUACCGAAUCGGAAAAAAAGGUUUUUUUGGUUUUUGGAAAGUAUUAUGUUACGCCGUUCGGAUCUGCAC | -1.63
ACCAUGCAGGUGGGCAUCUUUGGGAAGUGGGGCAAGGGGGAAAUAGGGAGGGGGGUAACACUUUGGGAACAGGUGGUCCCAGGUCGUUUC | 0.942
AAGUCCUGUGCUACACAUCGUAUGUACCGAAUCGGGAAAGGGUUUUUUUGGGUGGGAAAGUAUUAUGUUACGCCGUUCGGAUCUGCACUU | 0.238
UCCUGUGCUACACAUCGUAUGUACCGAAUCAAACCCCCCCAAACCCAAACCCCCCCAAAAAAGUAUUAUGUUACGCCGUUCGGAUCUGCA | 1.38
AGUCCUGUGCUACACAUCGUAUGUACCGAAUCGGUUUUUUGGUUUUUUGGUUUUUUGGAAAGUAUUAUGUUACGCCGUUCGGAUCUGCAC | -1.43
CACAGACAACACGCACCCACACAGACACAGAGGGAAGGGGUUGGGAUGGGGACAGGGUGCACAGCAGGGCGGGGUAGGACCCAAACCCCU | 1.82
UCAAGUCCUGUGCUACACAUCGUAUGUACCGAAUCGGUGGUUUUUUUGGAAAGGAAAGUAUUAUGUUACGCCGUUCGGAUCUGCACUUCC | -0.857
CCUGUGCUACACAUCGUAUGUACCGAAUCGGAAAAAAAGGGAAAAAAAGGGAAAAAAAGGAAAGUAUUAUGUUACGCCGUUCGGAUCUGC | -0.966
